Measurements collected from several papers.
Compare with care: the assays were run in different laboratories. Several values in a cell are separate wells, animals, samples, runs or records. ± marks the error that the study gave.

`COc1cc2cc(-c3ccc(CC(=O)Nc4cc(C(C)(C)C(F)(F)F)no4)cn3)cnc2cc1OC` — result for “best overall response PD”: 0% (RECIST v1.1; human RET-mutant medullary thyroid cancer; 75 mg, phase I).
For `COc1c(OCCCN2CCOCC2)ccc2c1N=C(NC(=O)c1cnc(N)nc1)N1CCN=C21`, “progression-free survival events” read 29.5% (relapsed iNHL patients; dose not given, 1 years follow-up).
`C[C@H]1C[C@H]2CSC(N)=N[C@@]2(c2nc(NC(=O)c3ccc(OC(F)F)cn3)cs2)CO1`: “percent change from baseline” -35.4% (item: total Aβ; healthy adults, plasma; 12 mg single dose, 48 h post-dose; reference: placebo).
For `OC(CCN1CCCCC1)(c1ccccc1)C1CC2C=CC1C2` (stereo not drawn), “beta power, EEG, Fz Cz” read 6 µV² (resting-state EEG; healthy elderly humans; oral, 4 mg, eyes closed, LS mean).
`COc1ccc(-c2cncc(N[C@@H](C)c3cccc(NC(=O)c4cncc(C)c4)c3)n2)cc1OC` — result for “delta delta Ct”: 0.692 (item: rno-miR-362-3p; rat SU5416/hypoxia model, lung; dose not given, unit not given; reference: SU5416/hypoxia vehicle).
For `C[C@H](Oc1ccc(Br)cc1-c1ccon1)C(=O)O`, “difference from placebo” read 0.131 ms (relative refractory period; human, tibialis anterior muscle; 50 mg, SAD).
`COc1nc(-c2cc(C)c(N[C@@H](C)c3cc(F)cc(F)c3)nn2)ccc1-n1cnc(C)c1`: “change in level” 57% (item: Aβ40; rat Sprague-Dawley male, plasma; oral, 5 mg/kg daily for 9 days, 4 h after dose; reference: vehicle).
Under “log2 fold change”, `N#Cc1ccc2c(-c3ccncc3)c(-c3ccc(F)cc3)nn2c1` is recorded as 0.129 (kinase binding, competitor, MIB/MS competition, item: KSP1; Candida albicans cell lysate; 10 µM; reference: DMSO).
`Cn1cc(Nc2nccc(-c3ccc4c(c3)CN(C3COC3)CC[C@H]4NC(=O)c3cn(C(C)(C)C)nn3)n2)cn1` — result for “pathway activation z-score”: 1.15 (item: D-myo-inositol-5-phosphate Metabolism; splenic B cells, mouse; in vivo, 30 mg/kg, IgD-activated B cells; reference: vehicle, positive = activation).
`CC1(C)CCC(CN2CCN(c3ccc(C(=O)NS(=O)(=O)c4ccc(NCC5CCOCC5)c([N+](=O)[O-])c4)c(Oc4cnc5[nH]ccc5c4)c3)CC2)=C(c2ccc(Cl)cc2)C1` gave an EC50 of 8 nM (cell kill, PI exclusion flow cytometry; CD3+ nodal neoplastic T cells, human; 24 h).
For `COc1ccc(F)cc1C(=O)NCc1ccc(-c2nn([C@@H](C)C(F)(F)F)c(N)c2C(N)=O)cc1`, “overall response rate” read 52% (MCL patients; dose not given, all efficacy-evaluable patients).
For `O=C(O)/C=C/c1ccc(Cn2ccnc2)cc1`, the thrombin time was 62.8 s (Rattus norvegicus, MCAO/R model, plasma; iv, dose not given, 4 h post-treatment).
`N#Cc1ccc2c(c1)[C@H]1CCCN(C(=O)c3ccc4[nH]cnc4c3)[C@H]1C2`: “change from baseline” -0.55 kg (item: body weight; human; 80 mg once daily, day 28, adjusted mean; reference: placebo).
`CC(C)NCC(O)c1ccc(O)c(O)c1` (stereo not drawn) has a sarcomere length of 1.72 µm (ventricular cardiomyocytes, C57BL/6 mouse; dose not given, 0.66 s).
For `CN(CCOc1ccc(CC2SC(=O)NC2=O)cc1)c1ccccn1` (racemic), the VO2 was 75.6 ± 5.16 mL/min/kg (indirect calorimetry; lean mice; dose not given, average over 72 h, end of treatment).
`CCOc1c([C@H](C)n2nc(C)c3c(N)ncnc32)cc(Cl)c(F)c1[C@@H]1CNC(=O)C1`: “plasma protein level change” -51% (Olink proximity extension proteomics, item: FCER2; human FL or MZL patients, plasma; dose not given, week 8; reference: baseline).
With `CN1CC(Oc2cnc(C#N)cc2-c2ccn3nc(NC(=O)C4CC4)cc3c2)C1` the EC50 was 1140 nM (IL-10 release, inducer; C57BL/6 mouse, LPS challenge, plasma; oral, 1 and 80 mg/kg, dosed 1 h before LPS).
With `CC[C@@H]1[C@H](F)C(=O)N[C@@H]1COc1nccc2cc(C(N)=O)c(OC)cc12` the inhibition was -0.643% (ATP-site probe binding, ActivX profiling, item: PCTAIRE1, PCTAIRE3; THP-1 cell lysate; 0.01 mM, Lys2 site).
For `C[C@@H](NC(=O)N1C(=O)[C@H](Cc2ccnc(N)c2)[C@H]1C(=O)O)C1CCCCC1`, the ACT Emax was 132 s (human; iv infusion, 0.3 mg/kg/h, 24 h).
Under “blood Glucose level”, `COc1ccccc1[C@H](Cn1c(=O)n(C(C)(C)C(=O)O)c(=O)c2c(C)c(-c3ncco3)sc21)OC1CCOCC1` is recorded as 90.5 ± 10.9 mg/dL (human; 50 mg, post-treatment).
Under “thermal paw withdrawal latency”, `CC(C)(C)c1sc2ncnc(Oc3c(F)cccc3OC(F)(F)F)c2c1-c1ccc(Cl)cc1` is recorded as “decreased” (naive Mrgpr knock-out mice; oral, 16 mg/kg).
`N#Cc1ccn2c(-c3ccncc3)c(-c3ccc(F)cc3)nc2c1`: “log2 fold change” 0.0802 (kinase binding, competitor, MIB/MS competition, item: MKK2; Candida albicans cell lysate; 10 µM; reference: DMSO).
`CC(C)[C@H](C(=O)Nc1ccc(C(=O)NO)cc1)c1ccccc1` — result for “annual tumour growth rate”: 92 %/year (volumetric MRI; human, left IAC schwannoma; dose not given, on treatment, day 224).
`CN(C)C(=O)c1cc2cnc(Nc3ccc(N4CCNCC4)cn3)nc2n1C1CCCC1` — result for “normalized enrichment score”: -1.3 (RNA-seq GSEA, item: HALLMARK_COMPLEMENT; MB002 tumour; concentration not given, in vivo; reference: vehicle, direction not given).
For `Cc1cc(Nc2ccc(S(F)(F)(F)(F)F)cc2)n2nc(C(C)(F)F)nc2n1`, the DHO concentration was 1.59 ± 0.14 µM (item: dihydroorotate; female CD-1 mice, blood; oral, 300 mg/kg daily, 8 h after dose 3).
For `Cc1n[nH]c2ccc(-c3cc(OC[C@@H](N)Cc4ccccc4)cnc3-c3ccoc3)cc12`, “log2 fold change” read -0.223 (kinase binding, competitor, MIB/MS competition, item: SAK1; Candida albicans cell lysate; 1 µM; reference: DMSO).
With `NC(=O)c1cnc2[nH]ccc2c1N[C@@H]1[C@@H]2CC3C[C@H]1C[C@@](O)(C3)C2` the percent change was 0.05% (CD4+ effector T cells, flow cytometry; Japanese humans, peripheral blood; 20 mg single dose; reference: baseline).
For `CCO[C@H]1CCN(Cc2c(OC)cc(C)c3[nH]ccc23)[C@H](c2ccc(C(=O)O)cc2)C1`, “PNH red cell clone size” read 85.1% (item: PNH-type erythrocytes; PNH patients, blood; 50 mg/200 mg, week 8, mean).
`Cc1ncsc1-c1ccc(CNC(=O)[C@@H]2C[C@@H](O)CN2C(=O)[C@@H](NC(=O)C2(C#N)CC2)C(C)(C)C)cc1` has a macrophage density of 11 cells/mm² (immunostaining, item: F4/80; mouse, meningeal perivascular; dose not given, with: urotensin II).
`CC(=O)NCC(=O)NCC(=O)N[C@H](C(=O)N[C@@H](Cc1ccc(O)cc1)C(=O)N[C@@H](CO)C(=O)N[C@H]1CSSC[C@@H](C(=O)N[C@@H](CCCNC(=N)N)C(=O)N2CCC[C@H]2C(=O)N[C@@H](CCC(N)=O)C(=O)N[C@@H](CCCNC(=N)N)C(=O)NCC(=O)NCCC(=O)N[C@@H](CCCCNC(=O)CN(CC(=O)NCCCC[C@H](NC(=O)CCNC(=O)CNC(=O)[C@H](CCCNC(=N)N)NC(=O)[C@H](CCC(N)=O)NC(=O)[C@@H]2CCCN2C(=O)[C@H](CCCNC(=N)N)NC(=O)[C@@H]2CSSC[C@H](NC(=O)[C@H](CO)NC(=O)[C@H](Cc3ccc(O)cc3)NC(=O)[C@@H](NC(=O)CNC(=O)CNC(C)=O)[C@@H](C)O)C(=O)N[C@@H](Cc3c[nH]cn3)C(=O)N[C@@H](Cc3ccccc3)C(=O)NCC(=O)N[C@@H](C)C(=O)N[C@@H](CC(C)C)C(=O)N[C@@H]([C@@H](C)O)C(=O)N[C@@H](Cc3c[nH]c4ccccc34)C(=O)N[C@@H](C(C)C)C(=O)N2)C(N)=O)C(=O)CCN)C(N)=O)NC(=O)[C@H](C(C)C)NC(=O)[C@H](Cc2c[nH]c3ccccc23)NC(=O)[C@H]([C@@H](C)O)NC(=O)[C@H](CC(C)C)NC(=O)[C@H](C)NC(=O)CNC(=O)[C@H](Cc2ccccc2)NC(=O)[C@H](Cc2c[nH]cn2)NC1=O)[C@@H](C)O` gave a haematocrit of 48.5% (healthy BALB/c mice; subcutaneous, 0.08 mg/kg, 4 d, single dose).
`N#CCC1CCN(c2nc(Nc3ccc(N4CCC(O)CC4)cc3)c3c(=O)[nH]ncc3n2)CC1` — result for “fold change from baseline”: -1.51 (Olink multiplex, item: CD163; human, serum; 80 mg, day 29; reference: baseline).
For `CCN(CC)CCNC(=O)c1cc(S(C)(=O)=O)ccc1OC`, “time on bar” read 46.1 s and 40.5 s and 18.8 s and 35.3 s and 3.39 s (catalepsy bar test; female CD-1 mice; intraperitoneal, 200 mg/kg, 90 min after dosing).
`CN(C(=O)n1cnc(-c2ccc[n+]([O-])c2)c1)C1CCCCC1` has an AUC(0-t) of 347 ng·h/mL (item: PEA; human, plasma; 10 mg single dose).
`COc1nnc2ccc(N3CCC(c4ccc(OCCN5CCN(C)C(=O)[C@H]5C)cc4)CC3)nn12`: “time above HEXIM1 threshold” 7.16 h (human patients; 15 mg twice daily, 1.5-fold above baseline).
Under “partial response, best response”, `O=C1Nc2cc3[nH]nc(-c4ccncc4)c3cc2CN1Cc1ccccc1` is recorded as 0% (RECIST v1.1; human, relapsed or refractory advanced solid tumours; intravenous, 1.8 mg/kg, pooled schedules).
`CN[C@@H]1COc2c(S(=O)(=O)NC(=O)Nc3c4c(cc5c3CCC5)CCC4)cnn2C1` gave an inhibition of 99.9% (item: IL-1β; human participants, whole blood ex vivo; 900 mg twice daily, multiple doses, 148 h, with: LPS/ATP; reference: baseline).
`NCC(=O)Nc1cncc(-c2nn3c(=O)cc(N4CCNCC4)nc3s2)c1` has an inhibition of 6.8% (ADP-induced platelet aggregation, light transmission aggregometry; human, stable CAD on aspirin, ex vivo platelets; subcutaneous, 0.04 mg/kg, 90 min post-dose, mean value, with: ADP 20 µM).
The lipase activity of `Cc1nn(-c2nc3c(F)cc(F)cc3s2)c(O)c1C(c1ccc(C(F)(F)F)cc1)c1c(C)nn(-c2nc3c(F)cc(F)cc3s2)c1O` is reported as 15.6 mOD/min and 69.9 mOD/min and 76.7 mOD/min and 78.4 mOD/min and 23.9 mOD/min (mouse, cerulein-induced acute pancreatitis, serum; 25 mg/kg, 192 h).
For `c1ccc(-c2n[nH]cc2-c2ccnc3ccccc23)nc1`, “log2 fold change” read 1.23 (kinase binding, competitor, MIB/MS competition, item: CDC7; Candida albicans cell lysate; 100 nM; reference: DMSO).
The k4 of `O=C(OC(C(F)(F)F)C(F)(F)F)N1CCN(Cc2cccc(Oc3ccccc3)c2)CC1` is reported as 0.07 min⁻¹ (PET blocking study; rhesus monkey, brain HIP; 0.1 mg/kg, compound pretreatment, with: [18F]T-401 tracer).
The sarcomere length of `O=C(O)CNC(=O)Cc1ccccc1` is reported as 1.65 µm (ventricular cardiomyocytes, C57BL/6 mouse; dose not given, 0.584 s).
`COc1cc2nccc(Oc3ccc(NC(=O)NC4CC4)c(Cl)c3)c2cc1C(N)=O`: “Ang-2 tumour reduction rate constant” -0.0144 /week (item: sum of target lesion diameters; human, RR-DTC patients; tumour growth model, point estimate).

Some of these lines once more:
`CC(=O)NCC(=O)NCC(=O)N[C@H](C(=O)N[C@@H](Cc1ccc(O)cc1)C(=O)N[C@@H](CO)C(=O)N[C@H]1CSSC[C@@H](C(=O)N[C@@H](CCCNC(=N)N)C(=O)N2CCC[C@H]2C(=O)N[C@@H](CCC(N)=O)C(=O)N[C@@H](CCCNC(=N)N)C(=O)NCC(=O)NCCC(=O)N[C@@H](CCCCNC(=O)CN(CC(=O)NCCCC[C@H](NC(=O)CCNC(=O)CNC(=O)[C@H](CCCNC(=N)N)NC(=O)[C@H](CCC(N)=O)NC(=O)[C@@H]2CCCN2C(=O)[C@H](CCCNC(=N)N)NC(=O)[C@@H]2CSSC[C@H](NC(=O)[C@H](CO)NC(=O)[C@H](Cc3ccc(O)cc3)NC(=O)[C@@H](NC(=O)CNC(=O)CNC(C)=O)[C@@H](C)O)C(=O)N[C@@H](Cc3c[nH]cn3)C(=O)N[C@@H](Cc3ccccc3)C(=O)NCC(=O)N[C@@H](C)C(=O)N[C@@H](CC(C)C)C(=O)N[C@@H]([C@@H](C)O)C(=O)N[C@@H](Cc3c[nH]c4ccccc34)C(=O)N[C@@H](C(C)C)C(=O)N2)C(N)=O)C(=O)CCN)C(N)=O)NC(=O)[C@H](C(C)C)NC(=O)[C@H](Cc2c[nH]c3ccccc23)NC(=O)[C@H]([C@@H](C)O)NC(=O)[C@H](CC(C)C)NC(=O)[C@H](C)NC(=O)CNC(=O)[C@H](Cc2ccccc2)NC(=O)[C@H](Cc2c[nH]cn2)NC1=O)[C@@H](C)O` gave a haematocrit of 48.5% (healthy BALB/c mice; subcutaneous, 0.08 mg/kg, 4 d, single dose).
`Cc1ncsc1-c1ccc(CNC(=O)[C@@H]2C[C@@H](O)CN2C(=O)[C@@H](NC(=O)C2(C#N)CC2)C(C)(C)C)cc1` has a macrophage density of 11 cells/mm² (immunostaining, item: F4/80; mouse, meningeal perivascular; dose not given, with: urotensin II).
For `COc1ccc(F)cc1C(=O)NCc1ccc(-c2nn([C@@H](C)C(F)(F)F)c(N)c2C(N)=O)cc1`, “overall response rate” read 52% (MCL patients; dose not given, all efficacy-evaluable patients).
`C[C@H]1C[C@H]2CSC(N)=N[C@@]2(c2nc(NC(=O)c3ccc(OC(F)F)cn3)cs2)CO1`: “percent change from baseline” -35.4% (item: total Aβ; healthy adults, plasma; 12 mg single dose, 48 h post-dose; reference: placebo).
`CN[C@@H]1COc2c(S(=O)(=O)NC(=O)Nc3c4c(cc5c3CCC5)CCC4)cnn2C1` gave an inhibition of 99.9% (item: IL-1β; human participants, whole blood ex vivo; 900 mg twice daily, multiple doses, 148 h, with: LPS/ATP; reference: baseline).
